# Assay results from different studies.
# Target: Casein kinase II subunit alpha' (CSNK2A2, Homo sapiens, UniProt P19784)
Compound,test,conditions,scale,quantity,result
CCn1cc(C(=O)O)c(=O)c2c(N)c(F)c(NC3CCCCC3)cc21,kinase activity,"0.1 µM, added: ATP at Km",,inhibition,-5.1%
O=C=[N][Ru-4]123([n]4c5ccc(O)cc5c5c6c(c7cc(F)c[n+]1c7c54)C(=O)NC6=O)[S+]1CC[S+]2CC[S+]3CC1 (stereo not shown),enzyme activity,"100 nM, human enzyme, added: 10 µM ATP",reference: untreated,remaining activity,107%
COc1c(Cl)cccc1Nc1c(-c2ccncc2C#C[C@@]2(C)CCCN2C(=O)/C=C/CN(C)C)[nH]c2c1C(=O)NCC2,"cell-free assay, competition with immobilised ligand",3 µM,,remaining binding,94%
CN1CCN(Cc2ccc(-c3ccc(CO[C@H]4CCC[C@@H]4NC(=O)c4cc(-c5cnn(C)c5)cnc4N)cc3)cc2)CC1,"enzyme activity, inhibitor",0.1 µM,,inhibition,9%
COc1cc(Nc2nc(C)cc(-c3cnn4nc(OC)ccc34)n2)cc(C(F)(F)F)c1,inhibitor,1 µM,reference: control,remaining activity,59%
Cc1ccc(-c2c(/C=C(\C#N)C(=O)NC(C)C)n(CCCO)c3ncnc(N)c23)cc1,"cell-free assay, competition with immobilised ligand",1 µM,,remaining binding,100%
NC(=O)C[C@H]1CCc2sc3ncnc(O[C@H]4CC[C@H](N5CCOCC5)CC4)c3c21,"enzyme activity, inhibitor",10 µM,,inhibition,12%
CC(C)=CC1OC(C)(C)C2C=C3C(=O)C(Cl)=CC(O)C3C3C(O)C4OC4C(=O)C132 (stereo not shown),"cell-free assay, competition with immobilised ligand",10 µM,,remaining binding,92%
CN1CC[C@@H](COc2cnc(C#N)cc2-c2ccn3nc(NC(=O)C4CC4)cc3c2)C1,"inhibitor, KinaseProfiler panel",1 µM,,inhibition,8%
C=CC(=O)N1CCCC(n2c(=O)c3ncccc3n(Cc3ccc(Oc4ccccc4)cc3)c2=O)C1 (stereo not shown),"cell-free assay, competition with immobilised ligand",1 µM,,remaining binding,100%
Nc1ncc2c(n1)-c1c([nH]c3ccc(C4=CCOCC4)cc13)CCC2,"binding, competition with immobilised ligand",1 µM,,remaining binding,56%
CCN1CCN(Cc2ccc(C(=O)Nc3ccc(C)c(NCc4cnc5[nH]ccc5c4OC)c3)cc2C(F)(F)F)CC1,"binding, competition with immobilised ligand",1 µM,,remaining binding,69%
Cc1cnc2nc1Nc1cccc(c1)COC/C=C/COCc1cc(ccc1OCCN1CCOCC1)N2,binding,0.1 µM,,remaining binding,13%

# Excerpt of the above:
Compound,test,conditions,scale,quantity,result
O=C=[N][Ru-4]123([n]4c5ccc(O)cc5c5c6c(c7cc(F)c[n+]1c7c54)C(=O)NC6=O)[S+]1CC[S+]2CC[S+]3CC1 (stereo not shown),enzyme activity,"100 nM, human enzyme, added: 10 µM ATP",reference: untreated,remaining activity,107%
